Experimental data of several laboratories.
Numbered parts are unrelated; each lists some results of a single study. Positions count from the first letter of the parent shown.

Block 1 — target: CCNA1, cyclin fold, Cln2 fusion (human); technique: yeast growth competition, sequencing; matrix: yeast; setting: strong parent motif; relative to: not given; direction: higher = stronger binding
Parent: E2F1 docking peptide (human); PPVKRRLDFETDH; partner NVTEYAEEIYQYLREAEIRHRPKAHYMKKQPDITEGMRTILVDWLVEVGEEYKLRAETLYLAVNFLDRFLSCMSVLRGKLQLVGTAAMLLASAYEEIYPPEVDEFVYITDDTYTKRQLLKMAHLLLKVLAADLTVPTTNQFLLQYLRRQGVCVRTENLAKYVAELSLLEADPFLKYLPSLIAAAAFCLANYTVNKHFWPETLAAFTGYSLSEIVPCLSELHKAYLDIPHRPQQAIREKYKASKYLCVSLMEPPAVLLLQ
For `L7M`, “normalised enrichment score” read 0.369.
For `T11R`, “normalised enrichment score” read 1.43.
`D12E` — result for “normalised enrichment score”: 1.67.
`P2A` — result for “normalised enrichment score”: 2.09.
For `L7H`, “normalised enrichment score” read 0.35.
For `E10H`, “normalised enrichment score” read 1.87.
`P2F` — result for “normalised enrichment score”: 1.39.
For `R5M`, “normalised enrichment score” read 0.415.
For `K4F`, “normalised enrichment score” read 0.633.
Under “normalised enrichment score”, `F9H` is recorded as 0.153.
`K4C` — result for “normalised enrichment score”: 0.884.
For `T11H`, “normalised enrichment score” read 1.74.
Under “normalised enrichment score”, `F9Y` is recorded as 0.923.
For `F9T`, “normalised enrichment score” read 0.184.
`R6T` — result for “normalised enrichment score”: 1.21.
`T11F` — result for “normalised enrichment score”: 2.03.
`T11V` — result for “normalised enrichment score”: 1.57.
`K4L`: “normalised enrichment score” 0.329.
Under “normalised enrichment score”, `E10L` is recorded as 1.21.
`V3R`: “normalised enrichment score” 0.812.
`R6I`: “normalised enrichment score” 0.379.
`P2E`: “normalised enrichment score” 1.44.
Under “normalised enrichment score”, `R5I` is recorded as 0.279.
`R5P` — result for “normalised enrichment score”: -0.243.
`P2Y` — result for “normalised enrichment score”: 1.85.

Block 2 — technique: RNA Bind-n-Seq; molecule type: RNA; matrix: in vitro; tested at: 200 nM; setting: whole 134-nt RNA, ends assumed; with: 150 mM LiCl; relative to: input library; direction: higher = stronger binding; library: 7-deaza-guanosine replaces G
Target: Fragile X messenger ribonucleoprotein 1, C-terminal low-complexity region (Fmr1, Mus musculus, UniProt P35922)
With `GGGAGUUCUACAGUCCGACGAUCAGUCCUGUGCUACACAUCGUAUGUACCGAAUCGGUUUUUUUGGUUUGGAAAAAAAGGAAAGUAUUAUGUUACGCCGUUCGGAUCUGCACUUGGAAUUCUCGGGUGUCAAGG` the log2 enrichment was -3.32.
`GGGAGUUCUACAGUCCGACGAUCUCAAGUCCUGUGCUACACAUCGUAUGUACCGAAUCGGUUUGGUUUGGGGUUUGGAAAGUAUUAUGUUACGCCGUUCGGAUCUGCACUUCCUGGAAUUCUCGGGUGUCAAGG` has a log2 enrichment of -1.66.
`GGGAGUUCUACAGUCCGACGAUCCCUGUGCUACACAUCGUAUGUACCGAAUCGGGGAAAGGGGUUUUUGGGGAAAAAAAGGGGAAAGUAUUAUGUUACGCCGUUCGGAUCUGCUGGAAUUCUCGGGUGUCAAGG` gave a log2 enrichment of -0.136.
`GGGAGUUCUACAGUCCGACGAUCUCAAGUCCUGUGCUACACAUCGUAUGUACCGAAUCGGUUUGGUGGAAAAAAAGGAAAGUAUUAUGUUACGCCGUUCGGAUCUGCACUUCCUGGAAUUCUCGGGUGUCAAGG` gave a log2 enrichment of -0.459.
`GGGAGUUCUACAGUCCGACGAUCUCCUGUGCUACACAUCGUAUGUACCGAAUCGGGGUUUGGGGAAAAAGGGGUUUUUGGGGAAAGUAUUAUGUUACGCCGUUCGGAUCUGCAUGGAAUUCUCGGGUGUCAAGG` has a log2 enrichment of -0.678.
`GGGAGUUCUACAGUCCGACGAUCCCUGUGCUACACAUCGUAUGUACCGAAUCGGGGAAAAAAAGGAAAAAAAGGGAAAAAAAGGAAAGUAUUAUGUUACGCCGUUCGGAUCUGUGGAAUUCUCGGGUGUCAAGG` has a log2 enrichment of 0.053.
For `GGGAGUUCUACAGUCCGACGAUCGCAGGAAGUAAAAACAAAUGGAAAUGCUUCGGAUAGUGGCAGGGGUGGGGGUUGCUAAGGAAAGGGUGGCAUGGGAGUGGGUAAAGAGUUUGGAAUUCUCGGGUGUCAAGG`, the log2 enrichment was 1.51.
`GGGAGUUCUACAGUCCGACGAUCCUCAAGUCCUGUGCUACACAUCGUAUGUACCGAAUCGGAAAAAAAGGUGGUGGAAAGUAUUAUGUUACGCCGUUCGGAUCUGCACUUCCAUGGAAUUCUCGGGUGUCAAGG` has a log2 enrichment of -0.42.

Block 3 — technique: DHFR PCA, deep sequencing; matrix: yeast; with: (+)-ABA 200 µM; relative to: wild-type fitted maximum; direction: higher = stronger binding
Target: ABI1, truncated, D143A, DHFR fusion (Arabidopsis thaliana)
Setting: methotrexate growth selection, single substitutions
Parent: PYL1, truncated, DHFR fusion (Arabidopsis thaliana); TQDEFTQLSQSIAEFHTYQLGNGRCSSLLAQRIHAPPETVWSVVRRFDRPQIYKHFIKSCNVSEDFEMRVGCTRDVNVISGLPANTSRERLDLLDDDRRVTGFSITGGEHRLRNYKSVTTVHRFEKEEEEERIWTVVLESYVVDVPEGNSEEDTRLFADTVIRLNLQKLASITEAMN; partner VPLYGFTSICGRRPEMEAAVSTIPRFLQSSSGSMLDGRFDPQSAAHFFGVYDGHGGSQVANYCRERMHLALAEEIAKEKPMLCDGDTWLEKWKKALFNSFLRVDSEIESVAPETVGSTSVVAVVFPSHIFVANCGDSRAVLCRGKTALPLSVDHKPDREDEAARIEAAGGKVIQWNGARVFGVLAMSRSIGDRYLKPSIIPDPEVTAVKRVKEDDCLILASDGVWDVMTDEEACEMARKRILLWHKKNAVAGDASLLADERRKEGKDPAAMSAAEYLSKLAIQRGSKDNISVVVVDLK
`S26E`: “relative binding score” 68.4%.
Under “relative binding score”, `V137N` is recorded as -22.2%.
`R69W`: “relative binding score” 66.5%.
For `C25K`, “relative binding score” read 35.9%.
`T173L` — result for “relative binding score”: 82.7%.
Under “relative binding score”, `L166K` is recorded as -2.07%.
`M176C`: “relative binding score” 93.2%.
For `S171W`, “relative binding score” read 88.9%.
For `I133E`, “relative binding score” read 117%.
`H110L`: “relative binding score” 11.3%.
For `R49F`, “relative binding score” read 86.6%.
`T86I` — result for “relative binding score”: 85.3%.
Under “relative binding score”, `F5V` is recorded as 96.4%.
Under “relative binding score”, `H122C` is recorded as 56.1%.
`S42R` — result for “relative binding score”: 97.3%.
`V118P` — result for “relative binding score”: 7.99%.
For `D96K`, “relative binding score” read 36.4%.
For `E64F`, “relative binding score” read 91.3%.
For `L93T`, “relative binding score” read 102%.

Block 4 — technique: RNA Bind-n-Seq; molecule type: RNA; matrix: in vitro; tested at: not given; setting: RNA with constant flanks, ends assumed; relative to: input RNA pool; direction: higher = stronger binding
Target: RING finger protein unkempt homolog, zinc fingers 1-6, GST-SBP tag (UNK, Homo sapiens, UniProt Q9C0B0, residues 30-357)
UniProt Q9C0B0, sequence (30-357, looked up): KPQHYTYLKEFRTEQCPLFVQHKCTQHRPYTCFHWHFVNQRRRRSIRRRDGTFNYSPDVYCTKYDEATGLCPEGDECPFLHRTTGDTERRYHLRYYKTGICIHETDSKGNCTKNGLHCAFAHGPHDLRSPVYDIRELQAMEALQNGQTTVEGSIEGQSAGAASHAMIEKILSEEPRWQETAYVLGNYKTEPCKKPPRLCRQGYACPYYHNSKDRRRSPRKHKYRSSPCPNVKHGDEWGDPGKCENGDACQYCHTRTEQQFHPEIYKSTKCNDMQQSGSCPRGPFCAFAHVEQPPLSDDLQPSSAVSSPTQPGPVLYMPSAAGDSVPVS
`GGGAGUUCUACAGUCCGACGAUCCAGAAUGGAGCUAUGGACGUUAAUUUGACCGUCUACUCCAAUCCCCGCCAAGAGACUGGCACCGCUGGACAUCCAACAUACCAAUUUUCUGCUAAUACAGGUCCUGCACAUUACAUGACUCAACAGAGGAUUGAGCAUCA` gave a bound/input enrichment of 0.361 ratio.
For `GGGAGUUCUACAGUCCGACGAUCUCAGAACUCAUCUCUACUCGGUUCACAGGCGCCACUGGUAGAGCAUUUCUUUUUAACAAGGCCGUUAACUUGCAGUACAGUGAAGUUCAAGAUCGGGUCAUGCUCACUGGCCGCCACAUGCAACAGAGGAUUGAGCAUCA`, the bound/input enrichment was 0.153 ratio.
The bound/input enrichment of `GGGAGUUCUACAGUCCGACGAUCAACAGGAUCAGUUAAUUAUUCCAUUUAUACCUACUGUAGGCUUUUUAUUCAACAGUUAUCUGCCGCUUAAGUACAUGAUAGGCAAAAACAAAGAGAAAAGAAAUGUUUUUGUAGUAGUGGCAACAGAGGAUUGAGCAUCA` is reported as 1.31 ratio.
The bound/input enrichment of `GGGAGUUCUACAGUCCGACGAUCCGCAUCUUUCAUCAGAAUGCAGUCGUGUCUAAGAGUGGGUAUUUUGUGAUAAUGUUUACUACCGAUCAUUUGUUAAUUUUGAUGCCUUCAUUUUAGCUAAUUUCAGAAUUUUUAUUAGGUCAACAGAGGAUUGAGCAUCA` is reported as 9.62 ratio.
The bound/input enrichment of `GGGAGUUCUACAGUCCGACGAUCGUUAUUGAAAAACUGUUAACCUCUUACGGAUUUAUUCAGUGUUCAGAACGUCAAGCCCGACUUUUCUUCCACUGUUCACAGUAUAAUGGCAACCUGCAAGACUUAAAAGUAGGAGAUGAUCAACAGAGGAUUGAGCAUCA` is reported as 0.253 ratio.
For `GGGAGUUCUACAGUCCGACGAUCAACAAAAAUCAAGAGAAUGUUUCUCAUCUCUCAGUUUCUUCUGCUUCACCAACAUCAUCUGCCGCAUCAGCUGCAGGAAGCAUAACAAGCUCUAGUCUGCAGAAAUCUCCUACAUUGCUCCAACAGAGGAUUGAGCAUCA`, the bound/input enrichment was 0.147 ratio.
With `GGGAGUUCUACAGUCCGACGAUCGCUGAGGGAAUAAAUUUAAUCAAGGUCUUUGCAAAAACAGAAGCACAGAAGGGAGCCUAUACCGAACUAACACUGCAGACUUAUCAAGAAGCACUCAGUCGCCAUUCUGCAGCUUCCUAACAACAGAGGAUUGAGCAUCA` the bound/input enrichment was 0.309 ratio.
For `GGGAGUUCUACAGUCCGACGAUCUAUUCAUGCAGGGGCUGCCCCACGAGCUCAGGCAAGGCCCCCGUGGGCUUUGCGUAGUUCCCGUUCUUCAAUUUGGUUACUGCGCGAGUGUGUCCUGGAAGGAAUUUGUAUGGGAUUGUGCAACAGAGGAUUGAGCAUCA`, the bound/input enrichment was 0.177 ratio.
`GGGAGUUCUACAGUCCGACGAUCCAGCUCCAGUCUAAUACCUAUGACCUCCAAGAGAGCAACGUGAGGCUAAAGCUCACGAUCGUCCGCACAGUUGGCUUUGGGGACCAGAUCAACAAAGAGGACAGCUACAAGCCUAUCGUGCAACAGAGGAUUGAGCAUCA` has a bound/input enrichment of 0.121 ratio.
For `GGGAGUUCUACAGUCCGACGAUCCCCAAGGAGACUAAGGAGGACGGAAGAACAGGUGAGGCACAAGGACCCGUGUAAACUCAUCUCCGACCAUCCCAUUCUUGAGUGGCCAGCUCAGAGCUCAAGGCUGGAAGAAAAAGAGCCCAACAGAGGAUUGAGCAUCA`, the bound/input enrichment was 0.109 ratio.
The bound/input enrichment of `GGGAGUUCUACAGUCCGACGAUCGAUUACAAACCAUAAAAUGUAUAACGUUUUGAGCAGUAUUCUGUUGGGAUGGAGAUUUUACCGGUUCAGACAAAUCUUCUAGAUCUGCUUCACCCAGCAUAUUUUCUAUUCAGUGAUAUACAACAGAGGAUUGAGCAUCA` is reported as 0.247 ratio.
